Published values collected from several papers.
A part holds a random share of what one study measured.

Study 1
Target: Ras GTPase-activating protein-binding protein 1, full length (G3BP1, Homo sapiens, UniProt Q13283)
Sequence of UniProt Q13283 (whole entry, looked up): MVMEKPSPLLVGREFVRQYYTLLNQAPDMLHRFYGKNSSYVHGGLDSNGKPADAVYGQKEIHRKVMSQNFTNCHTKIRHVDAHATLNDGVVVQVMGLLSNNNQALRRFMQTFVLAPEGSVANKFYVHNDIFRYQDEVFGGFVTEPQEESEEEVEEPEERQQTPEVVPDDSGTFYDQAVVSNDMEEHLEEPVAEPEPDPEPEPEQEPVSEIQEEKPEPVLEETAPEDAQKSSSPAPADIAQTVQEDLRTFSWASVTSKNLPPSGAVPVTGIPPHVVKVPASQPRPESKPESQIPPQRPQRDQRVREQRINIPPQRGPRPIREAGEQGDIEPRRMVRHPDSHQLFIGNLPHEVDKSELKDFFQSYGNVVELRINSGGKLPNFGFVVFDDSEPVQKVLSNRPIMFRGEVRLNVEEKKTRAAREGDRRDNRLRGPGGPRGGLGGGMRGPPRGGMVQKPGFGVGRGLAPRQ
Technique: RNA Bind-n-Seq
Molecule type: RNA
Medium: in vitro
Concentration: 200 nM
Notes: whole 134-nt RNA, ends assumed
Together with: 150 mM KCl
Relative to: input library
Reading: higher = stronger binding
Constant ends, left off below: GGGAGUUCUACAGUCCGACGAUC … UGGAAUUCUCGGGUGUCAAGG
| Sequence | log2 enrichment |
| --- | --- |
| UGGGAGGUGGAUUUUGUUUAUUUUUUUAGCUCAUUUCCAGGGGUGGGAAUUUUUUUUUAAUAUGUGUCAUGAAUAAAGUUGUUUUUGACA | 0.464 |
| CACAGACAACGCGCACCCACACAGACACAGAGGGAAGGGGUUGGGAUGGGGACAGGGUGCACAGCAGGGCGGGGUAGGACCCCAGCCCCU | 1.83 |
| CCUGUGCUACACAUCGUAUGUACCGAAUCGGGGCCCCCCGGGGCCCCCCGGGCCCCCCGGGAAAGUAUUAUGUUACGCCGUUCGGAUCUG | -0.541 |
| CUCAAGUCCUGUGCUACACAUCGUAUGUACCGAAUCGGCCGGGGCCGGGGCCGGAAAGUAUUAUGUUACGCCGUUCGGAUCUGCACUUCC | -0.507 |
| AAGUCCUGUGCUACACAUCGUAUGUACCGAAUCGGUUUUGGGUUUUGGGUUUUGGGGAAAGUAUUAUGUUACGCCGUUCGGAUCUGCACU | -0.7 |
| UCAAGUCCUGUGCUACACAUCGUAUGUACCGAAUCGGGGCCGGGCCGGGCCGGGGAAAGUAUUAUGUUACGCCGUUCGGAUCUGCACUUC | 0.212 |
| CUCAAGUCCUGUGCUACACAUCGUAUGUACCGAAUCGGAAAGGGAAAGGAAAGGAAAGUAUUAUGUUACGCCGUUCGGAUCUGCACUUCC | -0.849 |
| UCCUGUGCUACACAUCGUAUGUACCGAAUCGGGGUUUGGGGAAAAAAAGGGGAAAGGGGAAAGUAUUAUGUUACGCCGUUCGGAUCUGCA | 0.857 |
| UCAAGUCCUGUGCUACACAUCGUAUGUACCGAAUCGGUUUGGAAAGGAAAAAGGAAAGUAUUAUGUUACGCCGUUCGGAUCUGCACUUCC | -0.669 |
| UGGUUUGAGUCCAGCCAAUGACACUGGAGCCAAAAAGAAGAAAAAGAAACAAAAAAAGAAGAAAGAAAAAGGCAGUGAGACAGAUUCAGC | 0.0621 |
| AGUCCUGUGCUACACAUCGUAUGUACCGAAUCGGGGUUUUUUUGGGGAGGGGUGGGGAAAGUAUUAUGUUACGCCGUUCGGAUCUGCACU | 0.545 |
| UAACUUUAGAGGAGGAUCUGAUGGCUAUGGCAGUGGACGUGGAUUUGGGGAUGGCUAUAAUGGGUAUGGAGGAGGACCUGGAGGUGGCAA | 0.306 |
| CCUCAAGUCCUGUGCUACACAUCGUAUGUACCGAAUCGGCCGGGCCGGGCCGGAAAGUAUUAUGUUACGCCGUUCGGAUCUGCACUUCCA | -0.338 |
| UCCUGUGCUACACAUCGUAUGUACCGAAUCGGGGAAAAAAAGGGGAAAAAGGGGAGGGGAAAGUAUUAUGUUACGCCGUUCGGAUCUGCA | 0.809 |

Study 2
Target: Prothrombin, mature alpha-thrombin (F2, Homo sapiens, UniProt P00734)
Technique: aptamer microarray, sandwich
Molecule type: DNA with 2'F-ANA
Medium: in vitro
Concentration: 200 nM
Notes: whole 15-mer aptamer, many near background
Together with: Cy3 exosite-II aptamer, 400 nM
Reading: higher = stronger binding
Sequence: GGTTGGTGTGGTTGG
| Modification | mean fluorescence intensity [a.u.] |
| --- | --- |
| 2'F-ANA at 1 3 4 7 8 9 10 15 | 66.2 |
| 2'F-ANA at 4 5 15 | 62.9 |
| 2'F-ANA at 3 5 6 7 9 | 103 |
| 2'F-ANA at 3 4 5 6 8 9 11 13 14 | 48.6 |
| 2'F-ANA at 1 3 5 9 11 12 15 | 98.2 |
| 2'F-ANA at 2 4 5 7 8 11 15 | 63.8 |
| 2'F-ANA at 2 3 4 6 9 10 12 13 | 254 |
| 2'F-ANA at 2 3 4 5 6 7 13 | 58.3 |
| 2'F-ANA at 1 2 3 4 5 7 15 | 62.7 |
| 2'F-ANA at 2 4 6 8 15 | 335 |
| 2'F-ANA at 1 4 5 6 7 | 108 |
| 2'F-ANA at 1 2 4 6 7 9 13 14 15 | 55.1 |
| 2'F-ANA at 2 5 12 13 15 | 106 |
| 2'F-ANA at 3 4 5 6 7 11 | 74.7 |
| 2'F-ANA at 1 2 4 6 8 9 10 11 13 14 15 | 51 |
| 2'F-ANA at 1 3 4 5 6 7 12 15 | 128 |
| 2'F-ANA at 3 4 6 7 8 13 | 580 |
| 2'F-ANA at 3 9 10 14 | 466 |
| 2'F-ANA at 1 6 7 9 12 15 | 264 |

Study 3
Target: RNA binding protein fox-1 homolog 2, RRM domain, GST-SBP tag (RBFOX2, Homo sapiens, UniProt O43251-10, residues 100-194)
Technique: RNA Bind-n-Seq
Molecule type: RNA
Medium: in vitro
Concentration: 365 nM
Notes: natural RNA segment, single round, ends assumed
Relative to: no-protein control
Reading: higher = stronger binding
Constant ends, left off below: GGGAGUUCUACAGUCCGACGAUC … UGGAAUUCUCGGGUGCCAA
Target sequence (chain): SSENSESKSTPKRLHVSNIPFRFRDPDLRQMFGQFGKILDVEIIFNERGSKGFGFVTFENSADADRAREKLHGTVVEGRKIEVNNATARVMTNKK
| Sequence | RBNS enrichment (R) |
| --- | --- |
| UCUGGGAUUUUCUUGGUCCUCAUUUUCUGACUCUCUCCCACAACCCACUCCAAAAGGUAGUACCUCAAGGCUUCUCGCACUCCCCUAUUUCCUCGGGAUAUGAGAAGCCU | 0.27 |
| GAGCUAUUUCCUAACGCAGAAGGAAUUUGUUGUUACUUUUUGGAUUGUACUCUUCUAGGCUGGACCGAAUUCAUAUGCAGAUUGAAGUGAGACCUGCUCUUUACAGAUGG | 0.645 |
| UGAGAUCAAGCCUUUACUCCCUUUGAGAGUUUCCAACAUCAGUUGAUUGAGCUUCAGGCUUUACAACGUUUAUCCCUGUAGAGAUCAUCUUUACAGUUCCUCGGGAAAAU | 0.27 |
| AUGCCUCUCUGGAAGCCCUAGGCUCCAGGUGCUAUCUCUGUGGGAAGCAGCUACCUAAUUGGCAGGCCAAGGAGGAGUGCUGUCUGUCCAAGAGGGGACCUGUGGCCAGA | 0.291 |
| GAGAUGAUUCGAAGGGCCUUUCACUUUUAUUAAACAGUGACUUGUUUGACUGUGCUCCCUGGUCCUGUGAGGGCUUCAGUGCCCCACCCCUGGGCCACUUCUGCAGCUCC | 0.253 |
| CUAAUACACUAAUAGUAAGAUUAAGUUAGGCAGUCUUCUACCAAAUGUGUAAUGGAGAUUGCCUCAAAAUUGUGUCCACAUAAUCCACGCUCAUCUUGCAAAGCGCUAUU | 0.352 |
| GAGCGGGAGGUGGGCAUAGACUCUAUUUUGUGUUGUAGAAGUGACAUACAGUUGGCUGCUUAACAGACUCUCUAGCCGUUCAUUUUUGUGACGUCUCUUUGUUAACCUAA | 0.398 |
| CUGACUUGAACUCACAGUCGCCAAGUCUACCUAUCUUUCUUGGAAGCAGUCUUUCAAAAUUCCUACUUGUAUAUUCAUCCAUUGUUGACAAGGACAAAAUCAGUUGUAUU | 0.606 |
| CUCUCUCCUCCCUUCUGCCCUCCUUGCAUUGUGAUGAUCUAGUGGGCAUGUCUGUCACCUGGACAAUUGCCUCUUCUGACUAUAACCUCUUAAUAGUUGUGUAUAAUGAA | 0.661 |
| UUGUUUUCUUUGGUUUUUGUGUUUUUUUGGAGUUUGGCUGGAAGAGGUUUCUGUAAACCUGAAGCCUUGGUGCAUAGAGGGCUUUGUGGAAGCACAUAGUCAGCGGCUGG | 0.991 |
| AGCCCCUACUCAGCAGGGCUCUGGGAAUGUGCCUUCCUUAUUUUAGUUUCAGAAUUGCUGGGAAAGUUACCCCACUGGUGGGUGAGGAUCUAUCCUCAACCUACAUCCAG | 0.6 |
| ACUCACGGUUUGCAUCAAGAGUGUUUUUUGUAACUGCCUCUGGACUUGGGACAGUGAGUAGGAUCAAAAAUAAAUAAUGUACAUGACGGGGAAGGGAAAAACCUGUUGGA | 0.636 |

Study 4
Target: RING finger protein unkempt homolog, zinc fingers 1-6, SBP tag (UNK, Homo sapiens, UniProt Q9C0B0, residues 30-357)
Sequence of UniProt Q9C0B0 (30-357, looked up): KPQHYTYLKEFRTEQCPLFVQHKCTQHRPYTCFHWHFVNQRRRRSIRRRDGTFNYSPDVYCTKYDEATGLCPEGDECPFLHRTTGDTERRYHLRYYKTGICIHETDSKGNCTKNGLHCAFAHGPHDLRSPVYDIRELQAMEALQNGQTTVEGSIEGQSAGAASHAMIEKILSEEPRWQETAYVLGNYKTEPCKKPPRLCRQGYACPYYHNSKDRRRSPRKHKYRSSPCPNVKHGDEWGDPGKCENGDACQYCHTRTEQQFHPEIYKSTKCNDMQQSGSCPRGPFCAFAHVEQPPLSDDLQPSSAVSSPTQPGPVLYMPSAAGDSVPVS
Technique: RNA Bind-n-Seq
Molecule type: RNA
Medium: in vitro
Concentration: 100 nM
Notes: RNA with constant flanks, vertebrate orthologous sites, ends assumed
Relative to: input RNA pool
Reading: higher = stronger binding
Constant ends, left off below: GGGAGUUCUACAGUCCGACGAUC … CAACAGAGGAUUGAGCAUCA
| Sequence | bound/input enrichment |
| --- | --- |
| AUUCAAACCCGUGGUGCCCUGGCCUCAUGUUGAAGGAGUGGAAGUGGACUUAGAGUCUAUUAGAAGAAAAAACAAGGCCAGACAUGAACAAGAGCGCCACGCUGGAGGAGAUAACCAGAA | 0.416 ratio |
| AUUUUUUAAAGUUUUUUUAAUUUAAGUUUUCCUUUUGGGGGUAAAGUUUGCUCUACCAAAUAGUGAUUGUAACAAAUUGAUCUGUUUUGGAUGUUGCUAUAGUGACAUGCAGUUAUAUAU | 0.681 ratio |
| UUCACUGAGUGACAGUAUACCUUCAGUGGCUGAUUCACACUCAAGCCAUUUUUCAGAGUUCAGUUCGGAUAUGGAGAGUAUGAAGACAUCCUGCAGCCAUGGUUCUAGUGACUACCACGC | 0.263 ratio |
| GCAAUGAAAAAGCAGCCCUUCUCCCAGCCCCCUUUUCACUAGGAGAUACAAACAUUACCAUAGAAGAGCAAUUAAACUCAAUAAAUUUAUCUUUUCAGGAUGAUCCAGACUCCAGUACCA | 2.04 ratio |
| CCUACAAUAAUGAAAACCUACAAGAAUUUUUUUAUUUUUCAUUUUCCCCUUAGGCAUAUUUAGUAUUUUUUCCCCAGGCAGAUCAUUCUGAGUGUGCGAGUGUGUGUGCACAUGUUACAA | 3.73 ratio |
| CUCUCCGUUACCCCUAAGGUAGAACUUUUUAAAAUUGUAUCACCGCCACUUCUAAAAAUUUAGCAAUAUUGGAAGAAAACGCUAAUGAAGAAAUUUUGCUCAUUGUUUUGCAAACCAAAU | 0.784 ratio |
| GUGACUUUGGACGUCCGCUCGGCCGGGUUGCCGAAGCUGCCUGGUGUGUGUCGUGCGCUCGUUCCGCUGUCUGUGGAGGUAGGCCUCUGCCGCAAACAUGCUCCGUCAGAUCCUCGGGCA | 0.344 ratio |
| GGGACGCUUUGACAUAAAGCUCACCGUGUCGUGACCUGAGCUACUGCGAGCACUCAAUUUGAAAACGAAUCCAACUUAGAGAAACCCGUUCAGAUAAAAACCACCACUAGUCUUUGAACA | 0.172 ratio |
| CGUGCUUAUACUCUUCUAGGGAAGAGAAGAAUUGGGGAAAACUGUCCCCUUUUUAUGGACUAGUUUGUUUCUAAAUUAUGACCAAAAAAUAUUUUGCUAUUUCUUUCUUUAUAUAUGGAC | 0.649 ratio |
| AGAUUUGGACCUUGGAGACGAACCAAGGAGCUAGCAAAGUAAAGCAGACUUGUAAAAUGAUAGCCAGAUGCAGCUGCACAACAACAGUACUAUGACUAGCAGCUGUGUUAAAGUAUUUAU | 0.315 ratio |
| CUAUCUAGUCUUUUAGGAUCAGCCUCAAAUCUAUAGGAUUUACAACAAAUGUAUUAUAUAAUCUAGUUGAGAUUAAUAUUUUUUUAUUAGCCUGUAAAUAAAGAUGGCAUCUUCUACCUU | 0.455 ratio |
